Assay results collected from several papers.

For N#C/C=C/C(=O)Oc1ccc(Br)cc1, the CC50 was 109 µM (J774.A1; cell growth or viability, resazurin; 24 h).
The CC50 of CCc1ccc2c(c1O)C(c1ccc(OC)c(OC)c1)OC2=O (centres unmarked) is reported as ≥ 159 µM (J774.A1; cell growth or viability, resazurin; 24 h).
N#C/C=C/C(=O)Oc1cccc(F)c1 gave a CC50 of 34 µM (J774.A1; cell growth or viability, resazurin; 24 h).
COc1cc(COC(=O)C2C(C=O)=Cc3cc4c(cc3C2c2cc(OC)c(OC)c(OC)c2)OCO4)cc(OC)c1OC (centres unmarked) gave a CC50 of 51.3 µM (mouse Splenocyte; cell growth or viability, resazurin; 48 h).
With C=C(C)[C@@H]1CCC=C2CC[C@]3(C)[C@H](CC[C@@H]4[C@@]5(C)CCCNC(C)(C)[C@@H]5CC[C@]43C)[C@H]21 the CC50 was 4.79 µM (C-33 A; cell viability, CellTiter-Glo).
CCCCCc1ccc2c(c1O)C(c1ccc(OC)c(OC)c1)OC2=O (centres unmarked) gave a CC50 of ≥ 561 µM (J774.A1; cell growth or viability, resazurin; 24 h).
With Cc1ccc(S(=O)(=O)Nn2c3c(cc(-c4nc5ccccc5s4)c2=O)CCCC3)cc1 the CC50 was 240 µg/mL (BGM; cell growth or viability, trypan blue).
C=C(C)[C@@H]1CC[C@]2(C(N)=O)CC[C@]3(C)[C@H](CC[C@@H]4[C@@]5(C)CCCNC(C)(C)[C@@H]5CC[C@]43C)[C@@H]12 gave a CC50 of 4.08 µM (primary HFF; cell viability, CellTiter-Glo; HCMV AD169 assay setting).
The CC50 of CCCc1ccc2c(c1O)C(c1ccc(OC)cc1)OC2=O (centres unmarked) is reported as ≥ 335 µM (J774.A1; cell growth or viability, resazurin; 24 h).
For CC1(C)CC[C@]2(CO)CC[C@]3(C)C(=CC[C@@H]4[C@@]5(C)CCCNC(C)(C)[C@@H]5CC[C@]43C)[C@@H]2C1, the CC50 was 0.78 µM (C-33 A; cell viability, CellTiter-Glo).
The CC50 of COC(=O)C1C(C=NO)=Cc2cc3c(cc2C1c1cc(OC)c(OC)c(OC)c1)OCO3 (centres unmarked) is reported as > 100 µM (mouse Splenocyte; cell growth or viability, resazurin; 48 h).
With C=C1[C@@H](n2cnc3c(=O)[nH]c(N)nc32)C[C@H](O)[C@@]1(C#N)CO the CC50 was > 100 µM (HepG2.2.15; cell growth or viability, CCK-8; 14 days).
For COc1ccc(C2OC(=O)c3ccc(C(C)C)c(O)c32)c(OC)c1OC (centres unmarked), the CC50 was ≥ 140 µM (J774.A1; cell growth or viability, resazurin; 24 h).
C=C(C)[C@@H]1CC[C@]2(C(=O)n3ccnc3)CC[C@]3(C)[C@H](CC[C@@H]4[C@@]5(C)CCCNC(C)(C)[C@@H]5CC[C@]43C)[C@@H]12 gave a CC50 of 2.83 µM (C-33 A; cell viability, CellTiter-Glo).
The CC50 of Cc1ccc(S(=O)(=O)Nn2c3c(cc(-c4nc5ccccc5s4)c2=O)CCCCCC3)cc1 is reported as 300 µg/mL (FRhK-4; cell growth or viability, trypan blue).
With CC1(C)NCCC[C@]2(C)[C@H]3CC=C4[C@@H]5C[C@@](C)(CO)CC[C@]5(C)CC[C@@]4(C)[C@]3(C)CC[C@@H]12 the CC50 was 18.6 µM (primary HFF; cell viability, CellTiter-Glo; HCMV AD169 assay setting).
The CC50 of C=CCOC(=O)C1C(C=O)=Cc2cc3c(cc2C1c1cc(OC)c(OC)c(OC)c1)OCO3 (centres unmarked) is reported as > 100 µM (mouse Splenocyte; cell growth or viability, resazurin; 48 h).
COc1ccc(C2OC(=O)c3ccc(C)c(O)c32)c(OC)c1OC (centres unmarked) gave a CC50 of ≥ 151 µM (J774.A1; cell growth or viability, resazurin; 24 h).
The CC50 of COC(=O)C1C(C=NNCC(F)(F)F)=Cc2cc3c(cc2C1c1cc(OC)c(OC)c(OC)c1)OCO3 (centres unmarked) is reported as > 100 µM (mouse Splenocyte; cell growth or viability, resazurin; 48 h).
COc1ccc(C2OC(=O)c3cc4c(c(O)c32)CCCC4)c(OC)c1OC (centres unmarked) has a CC50 of ≥ 135 µM (J774.A1; cell growth or viability, resazurin; 24 h).
N#C[C@]1(CO)O[C@@H](n2cnc3c(N)nc(N)nc32)C[C@@H]1O has a CC50 of 3.6 µM (HepG2.2.15; cell growth or viability, CCK-8; 14 days).
With C[C@H]1[C@H](C)CC[C@]2(CO)CC[C@]3(C)C(=CC[C@@H]4[C@@]5(C)CCCNC(C)(C)[C@@H]5CC[C@]43C)[C@H]12 the CC50 was 7.87 µM (primary HFF; cell viability, CellTiter-Glo; HSV-1 assay setting).
CCCc1ccc2c(c1O)C(c1ccc(OC)c(OC)c1OC)OC2=O (centres unmarked) has a CC50 of 94.5 µM (J774.A1; cell growth or viability, resazurin; 24 h).

Some of these lines once more:
For CC1(C)CC[C@]2(CO)CC[C@]3(C)C(=CC[C@@H]4[C@@]5(C)CCCNC(C)(C)[C@@H]5CC[C@]43C)[C@@H]2C1, the CC50 was 0.78 µM (C-33 A; cell viability, CellTiter-Glo).
With C=C(C)[C@@H]1CCC=C2CC[C@]3(C)[C@H](CC[C@@H]4[C@@]5(C)CCCNC(C)(C)[C@@H]5CC[C@]43C)[C@H]21 the CC50 was 4.79 µM (C-33 A; cell viability, CellTiter-Glo).
N#C/C=C/C(=O)Oc1cccc(F)c1 gave a CC50 of 34 µM (J774.A1; cell growth or viability, resazurin; 24 h).
